Assay results pooled from the literature.
Every numbered part comes from another study and shows a few of its results, in no order.

Study 1
Target: Fragile X messenger ribonucleoprotein 1, C-terminal low-complexity region (Fmr1, Mus musculus, UniProt P35922)
Method: RNA Bind-n-Seq
Molecule type: RNA
Matrix: in vitro
Tested at: 200 nM
Notes: whole 134-nt RNA, ends assumed
Together with: 150 mM LiCl
Relative to: input library
Reading: higher = stronger binding
All molecules: 7-deaza-guanosine replaces G
`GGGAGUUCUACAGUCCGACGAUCAGUCCUGUGCUACACAUCGUAUGUACCGAAUCGGGUUUUUGGUUUUUGGUUUUUGGGAAAGUAUUAUGUUACGCCGUUCGGAUCUGCACUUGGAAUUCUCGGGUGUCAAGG` gave a log2 enrichment of -2.06.
With `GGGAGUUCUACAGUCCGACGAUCCUCAAGUCCUGUGCUACACAUCGUAUGUACCGAAUCGGAGGAAAGGUUUUUGGAAAGUAUUAUGUUACGCCGUUCGGAUCUGCACUUCCAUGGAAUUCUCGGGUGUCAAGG` the log2 enrichment was -0.973.
For `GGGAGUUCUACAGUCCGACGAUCAGUCCUGUGCUACACAUCGUAUGUACCGAAUCGGGGUUUGGGGUGGGGUUUUUGGGGAAAGUAUUAUGUUACGCCGUUCGGAUCUGCACUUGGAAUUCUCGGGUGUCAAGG`, the log2 enrichment was -0.639.
`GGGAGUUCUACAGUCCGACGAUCAUAGAUUGCGCAGUCUCUUUGUGGAGAGGACUUGAUCAUUAAAGGAAUCAGCGUUCAUAUAUCCAAUGCCGAACCUAAGCACAAUAGCAAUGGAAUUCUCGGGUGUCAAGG` gave a log2 enrichment of -0.622.
The log2 enrichment of `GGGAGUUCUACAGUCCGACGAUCAAGACAUUUGUUGUAUUUAUGGUUGUAACUGUACAUGCUUAUCAGGAUGAGACUGAAAGAAGGUAGGGCAAAAAUGGUUGAAUCUAUUUUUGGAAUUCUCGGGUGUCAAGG` is reported as -1.71.
`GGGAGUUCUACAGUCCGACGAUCUGUCAGGAUUAUGAAGAAGCUGUGCUCUUGCUGUUAGAAGGAGCUGCCUGGGAAGAAGCUUUGAGGCUGGUAAGAAUCUUGUAAAUCCUCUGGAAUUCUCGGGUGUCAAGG` has a log2 enrichment of -1.29.
`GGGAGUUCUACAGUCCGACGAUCUCAAGUCCUGUGCUACACAUCGUAUGUACCGAAUCGGUGGUUUUUUUGGAAAGGAAAGUAUUAUGUUACGCCGUUCGGAUCUGCACUUCCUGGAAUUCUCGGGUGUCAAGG` gave a log2 enrichment of -0.723.
With `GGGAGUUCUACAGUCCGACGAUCCAAGUCCUGUGCUACACAUCGUAUGUACCGAAUCGGGUGGGAAAAAAAGGGAGGGAAAGUAUUAUGUUACGCCGUUCGGAUCUGCACUUCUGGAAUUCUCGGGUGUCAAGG` the log2 enrichment was -0.148.

Study 2
Target: Centromere-binding protein 1, full length, N-terminal tag (CBF1, Saccharomyces cerevisiae, UniProt P17106, residues 1-351)
Sequence of UniProt P17106 (whole entry, looked up): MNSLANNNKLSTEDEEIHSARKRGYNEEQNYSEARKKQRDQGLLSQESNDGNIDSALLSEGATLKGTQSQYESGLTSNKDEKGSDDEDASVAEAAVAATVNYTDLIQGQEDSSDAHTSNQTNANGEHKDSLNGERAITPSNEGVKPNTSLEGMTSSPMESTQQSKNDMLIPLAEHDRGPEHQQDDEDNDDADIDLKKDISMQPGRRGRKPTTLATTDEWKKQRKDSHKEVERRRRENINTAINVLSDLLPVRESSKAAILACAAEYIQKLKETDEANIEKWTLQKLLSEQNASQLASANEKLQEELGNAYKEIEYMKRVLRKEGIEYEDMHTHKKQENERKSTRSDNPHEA
Method: protein-binding microarray
Molecule type: double-stranded DNA, one strand shown
Matrix: in vitro
Tested at: 0.8 µM
Notes: whole 60-bp probe, no competitor
Reading: higher = stronger binding
`CTAGAGAAAACCTATCACGTCTGACGAACATGATTCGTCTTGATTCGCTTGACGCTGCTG` gave a fluorescence intensity of 635 a.u.
The fluorescence intensity of `CTATTACAACATAATCACGCTTTCTTCTAGTTGTTCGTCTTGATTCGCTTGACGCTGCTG` is reported as 750 a.u.
With `GAAGTGGTGCAAAGATGTGTCACGTTCTGGACCTAGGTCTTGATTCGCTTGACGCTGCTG` the fluorescence intensity was 2310 a.u.
`TGTACGAAGCTATAAGGCACGGCTATAGTAGTTAGGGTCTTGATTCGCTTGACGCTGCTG` has a fluorescence intensity of 479 a.u.
With `CTACATGTATGGCTGATGGTGGTGTTCAAAAACTTCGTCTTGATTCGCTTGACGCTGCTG` the fluorescence intensity was 546 a.u.
`GAAACGTGTATCTACATCAGAGCTGCTGAAACTTAGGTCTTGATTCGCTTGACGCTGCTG` gave a fluorescence intensity of 523 a.u.
For `GAAGGTTCATCGCATGTGGCGCTATAATGCTTTTAGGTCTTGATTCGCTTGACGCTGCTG`, the fluorescence intensity was 551 a.u.
`GAACACCAGCGTGGTTACGTGCTATCGCCCAGCTAGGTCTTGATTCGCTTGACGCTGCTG` has a fluorescence intensity of 552 a.u.
With `GAAGAACTTTAGCGTCACCAGTTACTGCGACACTAGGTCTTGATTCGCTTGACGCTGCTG` the fluorescence intensity was 506 a.u.
For `GAATTCAAATGTGCTCAGCTGTGATTCATTGAATAGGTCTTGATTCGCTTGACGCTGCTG`, the fluorescence intensity was 504 a.u.
For `TGTACGAAGCTATTGCAGGTGTATATAGTAGTTAGGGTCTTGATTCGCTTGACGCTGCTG`, the fluorescence intensity was 518 a.u.
For `CCTAACTACTATAGAAACGTGGGATAGCTTCGTACAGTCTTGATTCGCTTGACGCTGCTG`, the fluorescence intensity was 538 a.u.
`CTAACAAGCCAGGCGCACGCACCTTAATAAGTTTTCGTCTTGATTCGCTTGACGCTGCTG` gave a fluorescence intensity of 518 a.u.
`CTAAGAAATAATCATATGATGATATAGAAAAGATTCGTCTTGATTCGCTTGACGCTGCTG` has a fluorescence intensity of 795 a.u.
The fluorescence intensity of `GAATGATTTACTGTTATGGTGATGCTATGTTAGTAGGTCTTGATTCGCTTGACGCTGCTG` is reported as 532 a.u.
`GAAATTCTCTAGTGTTTCGTGCTCAAATAACCGTAGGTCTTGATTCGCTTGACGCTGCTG` gave a fluorescence intensity of 528 a.u.
With `CTACTATTTAGTAGCAGGGTGACATGTTACTCCTTCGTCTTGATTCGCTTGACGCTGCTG` the fluorescence intensity was 589 a.u.
With `GAAATCGTTGCCATGTACGTGCCCTAACTGCAGTAGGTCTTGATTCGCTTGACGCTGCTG` the fluorescence intensity was 528 a.u.
`TGTACGAAGCTATAACATGTGGGTATAGTAGTTAGGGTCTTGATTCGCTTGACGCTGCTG` gave a fluorescence intensity of 559 a.u.

Study 3
Target: PABPC1L2, full length, GST fusion (mouse, UniProt A0ABA7IW68)
Method: RNAcompete
Molecule type: RNA
Matrix: in vitro
Tested at: 20 nM
Notes: 7-mer, probes averaged, single round
Relative to: mean of 7-mers
Reading: higher = stronger binding
Target sequence (chain): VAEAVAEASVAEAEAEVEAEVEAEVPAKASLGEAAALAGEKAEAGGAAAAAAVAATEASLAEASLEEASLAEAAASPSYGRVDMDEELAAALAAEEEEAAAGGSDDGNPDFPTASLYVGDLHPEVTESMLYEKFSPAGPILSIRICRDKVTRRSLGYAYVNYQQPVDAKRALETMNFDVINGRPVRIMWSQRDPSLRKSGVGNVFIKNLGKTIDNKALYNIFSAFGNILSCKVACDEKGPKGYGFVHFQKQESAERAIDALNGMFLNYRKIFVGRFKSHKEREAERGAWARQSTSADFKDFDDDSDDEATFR
With `UGUACUC` the 7-mer Z-score was -0.325.
`GUAGCGC` gave a 7-mer Z-score of -0.161.
`UCCUUGA` has a 7-mer Z-score of -0.253.
For `GACAAUU`, the 7-mer Z-score was 0.00436.
With `GGACUAG` the 7-mer Z-score was 0.191.
`AUGGCUU` has a 7-mer Z-score of -0.0645.
With `CGCGUGG` the 7-mer Z-score was 0.0587.
With `CAACCGC` the 7-mer Z-score was -0.106.
`ACGGUCA` gave a 7-mer Z-score of -0.0192.
For `UCACUAA`, the 7-mer Z-score was 0.0207.
For `CCCGCAU`, the 7-mer Z-score was -0.316.
With `UAUCGCU` the 7-mer Z-score was -0.284.
For `AAGCCGG`, the 7-mer Z-score was 0.0968.
`UGACUAG` gave a 7-mer Z-score of -0.012.
For `AACGUAG`, the 7-mer Z-score was 0.0478.
`GAUCACC` gave a 7-mer Z-score of -0.242.
For `GAUCGUA`, the 7-mer Z-score was -0.289.
The 7-mer Z-score of `GCCGGUU` is reported as -0.273.
With `ACUAACA` the 7-mer Z-score was 0.046.
For `UACGGAA`, the 7-mer Z-score was 0.187.
`AAACCGU` gave a 7-mer Z-score of 0.416.

Study 4
Target: Sal-like protein 4, full length isoform A (SALL4, Homo sapiens, UniProt Q9UJQ4, residues 1-1053)
Sequence of UniProt Q9UJQ4 (whole entry, looked up): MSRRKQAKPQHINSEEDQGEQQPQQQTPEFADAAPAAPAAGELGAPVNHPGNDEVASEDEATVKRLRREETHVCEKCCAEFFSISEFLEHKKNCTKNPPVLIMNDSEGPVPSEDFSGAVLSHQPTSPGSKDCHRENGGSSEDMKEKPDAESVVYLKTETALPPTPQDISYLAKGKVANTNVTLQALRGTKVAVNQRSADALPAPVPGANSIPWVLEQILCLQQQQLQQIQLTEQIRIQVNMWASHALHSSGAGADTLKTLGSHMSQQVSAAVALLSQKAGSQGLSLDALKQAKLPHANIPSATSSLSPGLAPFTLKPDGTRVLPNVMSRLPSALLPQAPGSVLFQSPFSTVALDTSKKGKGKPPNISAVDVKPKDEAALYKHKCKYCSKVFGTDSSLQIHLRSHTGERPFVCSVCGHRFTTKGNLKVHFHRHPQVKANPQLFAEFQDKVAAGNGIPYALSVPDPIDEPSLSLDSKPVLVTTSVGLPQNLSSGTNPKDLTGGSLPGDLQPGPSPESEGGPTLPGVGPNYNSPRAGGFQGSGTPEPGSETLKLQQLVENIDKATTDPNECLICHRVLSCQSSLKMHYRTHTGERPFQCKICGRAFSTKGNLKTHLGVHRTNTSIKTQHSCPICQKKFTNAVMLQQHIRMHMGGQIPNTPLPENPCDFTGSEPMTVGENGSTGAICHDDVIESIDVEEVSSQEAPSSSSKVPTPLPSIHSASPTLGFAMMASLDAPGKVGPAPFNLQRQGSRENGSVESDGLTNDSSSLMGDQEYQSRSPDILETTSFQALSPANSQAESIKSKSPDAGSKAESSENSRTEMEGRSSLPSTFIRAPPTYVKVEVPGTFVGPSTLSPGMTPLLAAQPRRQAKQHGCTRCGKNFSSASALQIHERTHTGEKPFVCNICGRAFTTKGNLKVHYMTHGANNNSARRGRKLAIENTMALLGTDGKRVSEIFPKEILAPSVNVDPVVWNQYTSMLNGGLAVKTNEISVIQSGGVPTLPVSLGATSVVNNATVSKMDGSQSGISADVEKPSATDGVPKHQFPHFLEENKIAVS
Method: universal PBM
Molecule type: double-stranded DNA, one strand shown
Matrix: in vitro
Tested at: 600 nM
Notes: 8-mer, flanks averaged, mean of replicates
Reading: higher = stronger binding
For `AACGCAGC`, the E-score was -0.161.
With `AAAGGCCA` the E-score was -0.119.
`ATTGGGCG` has an E-score of -0.0402.
With `GCAGTATA` the E-score was 0.0927.
With `CTAAAGTA` the E-score was 0.0994.
For `CATTTCGG`, the E-score was 0.0431.
With `CGGGCGCA` the E-score was -0.316.
With `AGAAATAG` the E-score was 0.256.
`CACTATTA` has an E-score of 0.239.
With `TACGACGA` the E-score was 0.106.
The E-score of `GCCTTTTA` is reported as -0.104.
`CGGTAGCC` has an E-score of -0.265.
`ACTGAGCC` has an E-score of -0.275.
For `AACATCAG`, the E-score was 0.118.
For `ACATCGTG`, the E-score was -0.0704.
With `GGTTTCAC` the E-score was -0.0291.
`AGATAAAA` gave an E-score of 0.253.
The E-score of `AAGCTGTC` is reported as -0.0783.
`CAGTAATC` gave an E-score of -0.053.
For `GTCCTCAA`, the E-score was -0.0381.
`CACCAATC` gave an E-score of -0.0254.
For `GCTCCCGA`, the E-score was -0.248.
The E-score of `TCCGTTCA` is reported as -0.0871.
`GTCAGTAA` has an E-score of 0.0874.

A few entries again (study 4):
`CACTATTA` has an E-score of 0.239.
With `TACGACGA` the E-score was 0.106.
The E-score of `GCCTTTTA` is reported as -0.104.
`CGGTAGCC` has an E-score of -0.265.
`ACTGAGCC` has an E-score of -0.275.
For `AACATCAG`, the E-score was 0.118.
For `ACATCGTG`, the E-score was -0.0704.
With `GGTTTCAC` the E-score was -0.0291.
`AGATAAAA` gave an E-score of 0.253.
The E-score of `AAGCTGTC` is reported as -0.0783.
`CAGTAATC` gave an E-score of -0.053.
For `GTCCTCAA`, the E-score was -0.0381.
